Results collected from several papers.
Every numbered part comes from another study and shows a few of its results, in no order. Substitutions count along the parent as printed.

Block 1
Target: ABI1, truncated, D143A, DHFR fusion (Arabidopsis thaliana)
Technique: DHFR PCA, deep sequencing
Sample: yeast
Notes: methotrexate growth selection, single substitutions
Added: (+)-ABA 1.4 µM
Baseline: wild-type fitted maximum
Direction: higher = stronger binding
Starting sequence: PYL1, truncated, DHFR fusion (Arabidopsis thaliana); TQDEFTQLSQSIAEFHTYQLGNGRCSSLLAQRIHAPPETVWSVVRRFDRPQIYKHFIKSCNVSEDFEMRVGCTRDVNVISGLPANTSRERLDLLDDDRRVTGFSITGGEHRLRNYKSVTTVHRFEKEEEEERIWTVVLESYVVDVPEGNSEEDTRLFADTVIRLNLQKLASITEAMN; partner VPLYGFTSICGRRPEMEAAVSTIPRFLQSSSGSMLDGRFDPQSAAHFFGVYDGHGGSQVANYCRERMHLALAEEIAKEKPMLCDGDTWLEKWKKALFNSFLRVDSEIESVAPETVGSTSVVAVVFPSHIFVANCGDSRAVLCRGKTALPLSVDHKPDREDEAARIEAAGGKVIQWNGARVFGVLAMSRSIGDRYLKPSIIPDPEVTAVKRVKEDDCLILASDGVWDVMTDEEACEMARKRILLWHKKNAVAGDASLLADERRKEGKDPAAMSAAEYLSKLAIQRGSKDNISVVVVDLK
Variant | relative binding score
S11W | 55.5%
N85T | 80.6%
D3T | 42.5%
A170D | 5.86%
R123A | 74.9%
V44M | 7.41%
I52L | 58.3%
Y141T | -4.32%
V145S | -14.1%
F157M | 14%
H16V | 16%
Q2D | 71.8%
T73E | 63.2%
T154I | -6.89%
G21M | 39.1%
Q2K | 58.9%
E38W | 25.7%
L82R | -0.697%
T154W | -33.2%
L156Q | 26.5%
E131F | 42.1%
E139K | 9.47%
D48P | 1.72%

Block 2
Target: Ras GTPase-activating protein-binding protein 1, full length (G3BP1, Homo sapiens, UniProt Q13283)
Sequence of UniProt Q13283 (whole entry, looked up): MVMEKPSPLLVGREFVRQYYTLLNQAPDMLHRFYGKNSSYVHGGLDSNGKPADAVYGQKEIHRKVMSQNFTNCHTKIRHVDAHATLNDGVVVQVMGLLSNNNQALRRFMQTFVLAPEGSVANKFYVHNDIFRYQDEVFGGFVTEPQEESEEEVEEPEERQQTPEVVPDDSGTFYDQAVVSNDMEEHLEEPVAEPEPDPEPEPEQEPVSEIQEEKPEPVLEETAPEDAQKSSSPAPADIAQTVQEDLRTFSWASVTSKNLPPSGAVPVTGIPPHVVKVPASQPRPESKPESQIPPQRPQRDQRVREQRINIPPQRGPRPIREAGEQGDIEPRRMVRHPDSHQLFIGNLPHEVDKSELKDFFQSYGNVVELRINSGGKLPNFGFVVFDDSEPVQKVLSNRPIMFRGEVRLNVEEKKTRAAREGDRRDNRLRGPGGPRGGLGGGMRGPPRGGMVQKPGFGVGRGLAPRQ
Technique: RNA Bind-n-Seq
Form: RNA
Sample: in vitro
Concentration: 200 nM
Notes: whole 134-nt RNA, ends assumed
Added: 150 mM LiCl
Baseline: input library
Direction: higher = stronger binding
Each molecule: 7-deaza-guanosine replaces G
Constant ends, left off below: GGGAGUUCUACAGUCCGACGAUC … UGGAAUUCUCGGGUGUCAAGG
Oligonucleotide | log2 enrichment
GCAGGAAGUAAAAACAAAUGGAAAUGCUUCGGAUAGUGGCAGGGGUGGGGGUUGCUAAGGCAAGGGUGGGAUGGGAGUGGGUAAAGAGUU | 0.153
UGGGAGGUGGAUUUUGUUUAUUUUUUUAGCUCAUUUCCAGGGGUGGGAAUUUUUUUUUAAUAUGUGUCAUGAAUCAAGUUGUUUUUGAAA | 0.0556
UAACUUUAGAGGAGGAUCAGAUGGAUAUGGCAGUGGACGUGGAUUUGGGGAUGGCUAUAAUGGGUAUGGAGGAGGACCUGGAGGUGGCAA | -0.0827
UGGCGCCGUUCGACACCAGGCGGAUCCGCUCUGCAGCACGAACCCAUCUCCAGCCGCAGCCGCAGCCGCCGCCCGGGCCGAGGAGCAGCC | 0.306
GUCCUGUGCUACACAUCGUAUGUACCGAAUCGGCCCCCGGGGCCCCCGGGGCCCCCGGAAAGUAUUAUGUUACGCCGUUCGGAUCUGCAC | -1.74
CCUGUGCUACACAUCGUAUGUACCGAAUCGGGGAAAAAAAGGGGUUUUUUUGGGGUGGGGAAAGUAUUAUGUUACGCCGUUCGGAUCUGC | 0.0974
AAGUCCUGUGCUACACAUCGUAUGUACCGAAUCGGGUUUUGGUUUUGGUUUUGGGGAAAGUAUUAUGUUACGCCGUUCGGAUCUGCACUU | -0.638
CUGUGCUACACAUCGUAUGUACCGAAUCGGGUUUUUUUGGGAAAAAAAGGGUUUUUUUGGGAAAGUAUUAUGUUACGCCGUUCGGAUCUG | -2.4
AGUCCUGUGCUACACAUCGUAUGUACCGAAUCGGGGAAAAAGGGGAGGGGUUUGGGGAAAGUAUUAUGUUACGCCGUUCGGAUCUGCACU | -0.563
GCUGUGACCCCAACGCCGGUGCCCGUGGUCGGGAGCCAGAUGACCAGACAAGCCCGGCGCCUCUACGUGGGCAACAUCCCCUUUGGCAUC | 0.661
AAGUCCUGUGCUACACAUCGUAUGUACCGAAUCGGGCCCCCGGCCCCCGGCCCCCGGAAAGUAUUAUGUUACGCCGUUCGGAUCUGCACU | 0.0356

Block 3
Target: CCND3, cyclin fold, Cln2 fusion (human)
Technique: yeast growth competition, sequencing
Sample: yeast
Notes: weak parent motif
Baseline: not given
Direction: higher = stronger binding
Starting sequence: WEE1 docking peptide (human); HKTFRKLRLFDTP; partner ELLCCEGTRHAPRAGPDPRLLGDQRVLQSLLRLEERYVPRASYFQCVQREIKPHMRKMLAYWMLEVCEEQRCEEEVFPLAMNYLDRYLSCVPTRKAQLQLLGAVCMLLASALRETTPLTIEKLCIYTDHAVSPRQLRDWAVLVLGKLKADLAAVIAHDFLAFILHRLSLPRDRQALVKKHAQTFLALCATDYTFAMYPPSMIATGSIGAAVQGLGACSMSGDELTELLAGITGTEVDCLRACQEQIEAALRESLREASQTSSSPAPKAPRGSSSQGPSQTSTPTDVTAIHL
Variant | normalised enrichment score
WKTFRKLRLFDTP [H1W] | 0.144
HKTFRKLRLVDTP [F10V] | 0.0498
HKTFPKLRLFDTP [R5P] | 0.0359
HKTFRKLKLFDTP [R8K] | 0.123
HRTFRKLRLFDTP [K2R] | 0.178
HKTFRNLRLFDTP [K6N] | 0.256
HCTFRKLRLFDTP [K2C] | 0.114
HKTFRKLPLFDTP [R8P] | 0.0678
HKTFRKLRLFSTP [D11S] | 0.0468
GKTFRKLRLFDTP [H1G] | 0.125
HKTFRKLRWFDTP [L9W] | 0.123
HKTHRKLRLFDTP [F4H] | 0.187
HYTFRKLRLFDTP [K2Y] | 0.0476
HKTFRKLWLFDTP [R8W] | 0.2
FKTFRKLRLFDTP [H1F] | 0.107
HKTFRKLHLFDTP [R8H] | 0.0984
HPTFRKLRLFDTP [K2P] | 0.0876
HKTFRFLRLFDTP [K6F] | -0.187
HKTFRKLRAFDTP [L9A] | 0.23
HKTFRKLRLFDMP [T12M] | 0.187
HKTFRKLILFDTP [R8I] | 0.203
HKTFKKLRLFDTP [R5K] | 0.152
HKTFRKLRLIDTP [F10I] | 0.149

Block 4
Target: Centromere-binding protein 1, full length, His-tagged (CBF1, Saccharomyces cerevisiae, UniProt P17106, residues 1-351)
Sequence of UniProt P17106 (whole entry, looked up): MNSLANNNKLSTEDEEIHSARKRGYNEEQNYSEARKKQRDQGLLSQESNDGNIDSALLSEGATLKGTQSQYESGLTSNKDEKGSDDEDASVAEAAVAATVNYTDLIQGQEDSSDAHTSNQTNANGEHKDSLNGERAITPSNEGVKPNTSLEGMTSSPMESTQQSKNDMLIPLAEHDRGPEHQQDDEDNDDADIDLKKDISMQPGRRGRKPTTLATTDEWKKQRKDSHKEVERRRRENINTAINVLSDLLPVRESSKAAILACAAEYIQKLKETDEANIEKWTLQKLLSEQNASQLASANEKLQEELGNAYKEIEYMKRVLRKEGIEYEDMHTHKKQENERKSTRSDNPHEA
Technique: competition protein-binding microarray
Form: double-stranded DNA, one strand shown
Sample: in vitro
Concentration: 2 µM
Notes: whole 60-bp probe, lowest competitor level
Added: Pho4 competitor, 0.05 µM
Direction: higher = stronger binding
Constant ends, left off below: … GTCTTGATTCGCTTGACGCTGCTG
Oligonucleotide | fluorescence intensity
CCGGGACATTATAACAACGTGCAAATGGCGATGATT | 135 a.u.
CATACCCAACCTTGTGTAGTGGGTGAAGATATTTGT | 72.3 a.u.
GTCTTGTCTCATTGTATAGTGGGTGTCCCCACTTCA | 82.2 a.u.
CATACCCAACCTTGTGTCGTGGGTGAAGATATTTGT | 68.5 a.u.
AAAGCGGTAATTTGACCCGTGGGTGCAGATATCTAT | 89.1 a.u.
CCCTCCTCTCAGTCCCACGTGGGCGCTGGCGGCTTT | 707 a.u.
CACGACTTGGCTACTCATTCTTTGTGAAACCTTAGA | 63.9 a.u.
CATACCCAACCTTGTGCCGTGGGTGAAGATATTTGT | 68.6 a.u.
AAAGCGGTAATTTGGCCTGTGGGTGCAGATATCTAT | 77.2 a.u.
TTTGTTGCAACTATCCGCGTGGCCGATTGAGAGTCC | 91.5 a.u.
GTCTTGTCTCATTGATCTGTGGGTGTCCCCACTTCA | 75.5 a.u.
TGCGCAACAACTTGTCACTTCACTTTATGTCTAGAA | 73.2 a.u.
TGTGCGTTATGCTTCCATGTGACGCTACATCTATTG | 414 a.u.
CAGCTCGCCATCCTCCACGTTTTGGTAAGCTGCCGG | 71.4 a.u.
TGCGCAACAACTTGTCACCACACTTTATGTCTAGAA | 87.3 a.u.
ACTTGGCGTTGGTCCAACGTGGAATTTCAACAACCA | 69.6 a.u.
TTTTTGTAGAATGTACGCGTGATGGCAGTGCCCTGC | 150 a.u.
GCAATTGGATCTCACCACGTGGATTTAAAGATGGAC | 1020 a.u.
CTTTCCCGATCTTGGGGAGTGGGTGTAGCACATTTG | 65.4 a.u.
CATACCCAACCTTGCTATGTGGGTGAAGATATTTGT | 83.6 a.u.
CTTTCCCGATCTTCCCACGTGTTTTTAGCACATTTG | 644 a.u.
TTTCCTGTTGTGGGTCATATGACTTTGAACCAAATG | 1050 a.u.
TATCCCATCTAATATTCCGTGATGGTTTAATGGTCA | 87.7 a.u.
CGGGGTTAAGTTTGACGTGTGGGTGGCTTGCAGCAG | 67.6 a.u.
TCGCTTCCATTGCTGCCCGTGAAACTGCAAAGGCCA | 64.1 a.u.

Block 5
Target: Sal-like protein 4, full length isoform A (SALL4, Homo sapiens, UniProt Q9UJQ4, residues 1-1053)
Sequence of UniProt Q9UJQ4 (whole entry, looked up): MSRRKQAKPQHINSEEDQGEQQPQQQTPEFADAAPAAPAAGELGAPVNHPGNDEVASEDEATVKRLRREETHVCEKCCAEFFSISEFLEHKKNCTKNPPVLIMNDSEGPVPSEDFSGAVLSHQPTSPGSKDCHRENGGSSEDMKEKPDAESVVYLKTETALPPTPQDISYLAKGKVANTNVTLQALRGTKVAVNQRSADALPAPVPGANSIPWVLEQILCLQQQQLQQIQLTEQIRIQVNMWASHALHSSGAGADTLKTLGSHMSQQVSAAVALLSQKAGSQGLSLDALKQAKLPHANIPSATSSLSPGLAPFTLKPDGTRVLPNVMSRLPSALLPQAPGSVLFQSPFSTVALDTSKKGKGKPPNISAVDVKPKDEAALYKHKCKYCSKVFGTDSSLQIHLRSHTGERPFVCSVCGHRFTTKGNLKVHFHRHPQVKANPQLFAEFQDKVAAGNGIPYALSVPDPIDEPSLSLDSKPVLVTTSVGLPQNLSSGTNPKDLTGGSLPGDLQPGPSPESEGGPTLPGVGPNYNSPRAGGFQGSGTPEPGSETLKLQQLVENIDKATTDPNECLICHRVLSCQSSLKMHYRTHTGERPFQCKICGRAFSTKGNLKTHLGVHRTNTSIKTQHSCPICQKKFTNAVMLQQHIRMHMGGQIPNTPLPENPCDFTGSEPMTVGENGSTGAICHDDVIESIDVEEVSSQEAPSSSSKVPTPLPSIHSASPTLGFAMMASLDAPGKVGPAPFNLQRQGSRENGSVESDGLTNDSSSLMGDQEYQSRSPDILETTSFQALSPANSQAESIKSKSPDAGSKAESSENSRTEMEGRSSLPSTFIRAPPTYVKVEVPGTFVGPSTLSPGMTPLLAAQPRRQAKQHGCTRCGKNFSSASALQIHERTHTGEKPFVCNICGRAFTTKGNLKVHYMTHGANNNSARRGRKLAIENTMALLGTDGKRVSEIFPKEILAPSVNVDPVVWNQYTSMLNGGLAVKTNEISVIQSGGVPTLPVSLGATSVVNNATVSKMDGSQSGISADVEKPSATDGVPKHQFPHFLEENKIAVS
Technique: universal PBM
Form: double-stranded DNA, one strand shown
Sample: in vitro
Concentration: 600 nM
Notes: 8-mer, flanks averaged, mean of replicates
Direction: higher = stronger binding
Oligonucleotide | E-score
AGAGAACC | -0.256
GAGAATGA | 0.174
CTGAACAA | 0.0979
CTTCTTTA | 0.171
AAATACTA | 0.304
AGTAGTAT | 0.238
AGCGCACC | -0.198
AATTCATA | 0.388
CCGCGCAC | -0.316
GTCGCTAA | 0.0328
TAATTCCA | 0.213
CGAAAACA | -0.0283
CGTTTCCC | -0.246
AAGCCTTC | -0.0919
GCCCACAC | -0.2
GGTTTACA | 0.142
ACAAACCT | 0.0664
AACATAGT | 0.185
GCCTATAA | 0.205
GCCGATTA | 0.139
AATTTTTC | 0.336
AATGCGCG | -0.102
GCTGAAGA | -0.0926

Block 6
Target: HLF, bZIP domain (human)
Technique: DHFR protein complementation
Sample: yeast
Notes: single substitutions, most at no-binding floor
Baseline: wild-type JUN-FOS pair
Direction: higher = stronger binding
Starting sequence: JUN, bZIP domain (human); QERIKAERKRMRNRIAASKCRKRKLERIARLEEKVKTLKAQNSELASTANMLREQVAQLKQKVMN; partner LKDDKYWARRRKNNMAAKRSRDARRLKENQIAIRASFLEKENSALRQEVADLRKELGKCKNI
Variant | binding fitness
E44H | -1.47 natural log
A49W | -1.48 natural log
E54K | -1.22 natural log
A46I | -1.32 natural log
K34P | -1.55 natural log
R30H | -1.38 natural log
V56K | -1.51 natural log
L31S | -1.41 natural log
K39W | -1.43 natural log
L38G | -1.5 natural log
E32I | -1.28 natural log
L59G | -1.36 natural log
A40E | -1.3 natural log
Q41P | -1.52 natural log
R53V | -1.27 natural log
A46C | -1.45 natural log
A57P | -1.54 natural log
A29G | -1.32 natural log
L45K | -1.43 natural log
S47L | -1.39 natural log
A49T | -1.38 natural log
M51K | -1.41 natural log
L38H | -1.47 natural log
V35R | -1.51 natural log
E33D | -1.38 natural log

Some of these lines once more (block 6):
Variant | binding fitness
E54K | -1.22 natural log
A49W | -1.48 natural log
A46C | -1.45 natural log
V56K | -1.51 natural log
L45K | -1.43 natural log
R53V | -1.27 natural log
S47L | -1.39 natural log
K34P | -1.55 natural log
A46I | -1.32 natural log
E44H | -1.47 natural log
E33D | -1.38 natural log
M51K | -1.41 natural log
A57P | -1.54 natural log
A40E | -1.3 natural log
L38G | -1.5 natural log
V35R | -1.51 natural log
L38H | -1.47 natural log
R30H | -1.38 natural log
